{"data": "Assay results from different studies", "note": "Protocols differ between the studies behind these lines. ± gives the spread as reported."}
{"Structure (SMILES)": "CO[C@H]1C[C@@H]2CC[C@@H](C)[C@@](O)(O2)C(=O)C(=O)N2CCCC[C@H]2C(=O)O[C@H]([C@H](C)C[C@@H]2CC[C@@H](O)[C@H](OC)C2)CC(=O)[C@H](C)/C=C(\\C)[C@@H](O)[C@@H](OC)C(=O)[C@H](C)C[C@H](C)/C=C/C=C/C=C/1C", "system": "paediatric BMT recipients, whole blood", "conditions": "oral, 2.5 mg/m²/day", "half-life": "1470 ± 672 min"}
{"Structure (SMILES)": "CC(C)[C@H](N)C(=O)OC[C@H]1O[C@@H](n2cc(F)c(=O)[nH]c2=O)C[C@@H]1O", "system": "human small intestine homogenate", "conditions": "pH 7.4, 37 °C, protein 1000 µg/mL", "half-life": "15.5 ± 1.6 min"}
{"Structure (SMILES)": "CCC(=O)Oc1ccc(C=C(C#N)C(=O)NCCCNC(=O)C(C#N)=Cc2ccc(OC(=O)CC)c(OC(=O)CC)c2)cc1OC(=O)CC", "system": "rat plasma (Wistar, male)", "conditions": "100 µM, pH 7.4, 37 °C, 5 % plasma in phosphate buffer", "half-life": "~2.3 min"}
{"Structure (SMILES)": "CN1C(=O)[C@@H](NC(=O)c2nnc(Cc3ccccc3)[nH]2)COc2ccccc21", "system": "healthy men, plasma", "conditions": "oral, 20 mg once daily, day 1, geometric mean", "half-life": "230 min"}
{"Structure (SMILES)": "NC(=O)c1cnc2[nH]ccc2c1N[C@@H]1[C@@H]2CC3C[C@H]1C[C@@](O)(C3)C2", "system": "healthy Japanese men, plasma", "conditions": "oral, 60 mg, single dose fasted", "half-life": "240 min"}
{"Structure (SMILES)": "COc1cc(OC)c(/C=C/S(=O)(=O)Cc2ccc(OC)c(NCC(=O)O)c2)c(OC)c1", "system": "cancer patients, phase I, plasma", "conditions": "oral, 280 mg twice daily, day 1 cycle 1", "half-life": "169 ± 46.2 min"}
{"Structure (SMILES)": "CCOc1ccc(Cc2cc([C@@H]3S[C@H](CO)[C@@H](O)[C@H](O)[C@H]3O)c(OC)cc2C)cc1", "system": "Japanese type 2 diabetes patients, plasma", "conditions": "oral, 5 mg single dose, eGFR 60-89 mL/min/1.73 m^2", "half-life": "654 ± 45.1 min"}
{"Structure (SMILES)": "COc1ccc2c3c1O[C@H]1C[C@@H](OC(=O)c4ccccc4)C=C[C@@]31CCN(C)C2", "system": "healthy young men, plasma", "conditions": "intranasal, 5.5 mg, single dose", "half-life": "64.2 min"}
{"Structure (SMILES)": "Cc1ccc(NC(=O)c2ccc(CN3CCN(C)CC3)cc2)cc1Nc1nccc(-c2cncc(-c3oncc3C)c2)n1", "system": "healthy volunteers, plasma", "conditions": "oral, 12.5 mg once daily, day 1, 7-day dosing, mean", "half-life": "786 min"}
{"Structure (SMILES)": "CCC(CC)COC(=O)[C@H](C)N[P@](=O)(OC[C@H]1O[C@@](C#N)(c2ccc3c(N)ncnn23)[C@H](O)[C@@H]1O)Oc1ccccc1", "system": "CD-1 mouse liver microsomes", "conditions": "1 µM, pH 7.4, without NADPH", "half-life": "1 min"}
{"Structure (SMILES)": "CC(C)(c1ccc(O)cc1)c1ccc(O)cc1", "test": "GC-MS", "system": "exposure tank water with snails, charcoal-filtered tap water", "conditions": "1000 ng/L nominal, 22 °C", "half-life": "353 min"}
{"note": "Some of these lines once more:"}
{"Structure (SMILES)": "NC(=O)c1cnc2[nH]ccc2c1N[C@@H]1[C@@H]2CC3C[C@H]1C[C@@](O)(C3)C2", "system": "healthy Japanese men, plasma", "conditions": "oral, 60 mg, single dose fasted", "half-life": "240 min"}
{"Structure (SMILES)": "COc1cc(OC)c(/C=C/S(=O)(=O)Cc2ccc(OC)c(NCC(=O)O)c2)c(OC)c1", "system": "cancer patients, phase I, plasma", "conditions": "oral, 280 mg twice daily, day 1 cycle 1", "half-life": "169 ± 46.2 min"}
